Measured values of several laboratories.
Numbered parts are unrelated; each lists some results of a single study.

Sample 1
Target: Centromere-binding protein 1, full length, N-terminal tag (CBF1, Saccharomyces cerevisiae, UniProt P17106, residues 1-351)
UniProt P17106, sequence (whole entry, looked up): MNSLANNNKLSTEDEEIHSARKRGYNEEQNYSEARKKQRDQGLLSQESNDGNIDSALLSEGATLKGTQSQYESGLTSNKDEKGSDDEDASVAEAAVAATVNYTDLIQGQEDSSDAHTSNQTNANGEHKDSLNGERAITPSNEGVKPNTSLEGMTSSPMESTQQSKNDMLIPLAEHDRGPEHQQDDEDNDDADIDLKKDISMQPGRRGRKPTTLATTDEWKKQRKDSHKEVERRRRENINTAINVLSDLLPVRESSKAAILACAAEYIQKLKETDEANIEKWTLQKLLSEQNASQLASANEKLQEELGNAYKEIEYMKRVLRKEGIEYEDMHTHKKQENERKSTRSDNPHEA
Method: protein-binding microarray
Molecule type: double-stranded DNA, one strand shown
Medium: in vitro
Concentration: 0.8 µM
Notes: whole 60-bp probe, no competitor
Reading: higher = stronger binding
Oligonucleotide	fluorescence intensity [a.u.]
TGTACGAAGCTATATCAGCTGTTTATAGTAGTTAGGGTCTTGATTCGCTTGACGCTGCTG	573
CCTAACTACTATAAATACCTGATATAGCTTCGTACAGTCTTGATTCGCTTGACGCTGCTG	499
GAATGCCGCGTATATCATGACACTTATACTTGGTAGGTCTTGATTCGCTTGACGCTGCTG	541
CCTAACTACTATAGCCACATGCGATAGCTTCGTACAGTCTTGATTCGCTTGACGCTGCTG	567
CTATAAGGCTCTACACACGTTTACGATGATATTTTCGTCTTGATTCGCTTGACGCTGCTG	538
GAATCAGCTTATGGTGATGGCACATTTTTGCATTAGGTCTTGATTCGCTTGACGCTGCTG	514
CTATTTCGTGCCGCAAACGTGGAGATGGGAAAATTCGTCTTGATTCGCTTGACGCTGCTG	563
CTACCCAAAAATCGTCACCTTTGTGCGGCGAGCTTCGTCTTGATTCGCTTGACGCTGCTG	496
CTAATATATATGTGTCATGCGAGTCTTTACATTTTCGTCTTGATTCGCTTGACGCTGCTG	649
GAATCTCTCTTTTCCCACGTGCTCCGCTCTCTTTAGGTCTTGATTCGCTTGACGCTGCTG	3030
GAATGAATAAATCGACGTGTGTGTACGGTGGAATAGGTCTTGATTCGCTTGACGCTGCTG	568
CCTAACTACTATATTCACGTTAAATAGCTTCGTACAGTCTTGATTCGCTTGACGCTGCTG	551
CTATCTCTCCATATTCACCTGTTACCCAGAGGGTTCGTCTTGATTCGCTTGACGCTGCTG	548
GAAAATGAGTATCAACACGAGGAACAGTACAGGTAGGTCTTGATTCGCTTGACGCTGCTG	607

Sample 2
Target: RING finger protein unkempt homolog, zinc fingers 1-6, GST-SBP tag (UNK, Homo sapiens, UniProt Q9C0B0, residues 30-357)
Method: RNA Bind-n-Seq
Molecule type: RNA
Medium: in vitro
Concentration: not given
Notes: RNA with constant flanks, human-mouse chimeric sites, ends assumed
Baseline: input RNA pool
Reading: higher = stronger binding
Residues (chain): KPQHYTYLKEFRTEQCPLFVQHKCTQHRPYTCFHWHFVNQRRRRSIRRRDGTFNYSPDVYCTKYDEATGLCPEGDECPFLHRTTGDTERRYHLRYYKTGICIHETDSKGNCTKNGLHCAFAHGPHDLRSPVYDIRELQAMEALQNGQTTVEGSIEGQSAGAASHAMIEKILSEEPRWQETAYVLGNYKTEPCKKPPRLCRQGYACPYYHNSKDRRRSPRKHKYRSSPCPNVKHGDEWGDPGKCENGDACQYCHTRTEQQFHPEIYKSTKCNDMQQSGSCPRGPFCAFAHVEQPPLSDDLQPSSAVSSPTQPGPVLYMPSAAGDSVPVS
Oligonucleotide	bound/input enrichment [ratio]
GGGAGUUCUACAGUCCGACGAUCAGAUAUUAAGUAUUUUGAAAAAACUCGAACAGAUUUAACAAGGGUAGCCAGCUUGGAGUCUAGCAACUUGCCAAUGUGUUUACCAAUCUGGGGGCUUGUUUUUCUUUUCUUCUUUCAAAUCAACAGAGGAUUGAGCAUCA	0.329
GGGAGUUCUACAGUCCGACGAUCUUAAUCCCCUUUACUGCUCCCCCACUUCUCAUGGUAAUAACAAAGUCUUAUAUCCCCGUCCUAGCUUUCACUCAGAUGGCUUAUGGAGCCAGUUUCCUAGCUUUCUUGGGUGGGAUCAGACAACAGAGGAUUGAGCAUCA	0.326
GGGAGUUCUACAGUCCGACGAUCGUAGCUGGGACUACAGAAAUGCUGGUAGUGCUCCGGCCUUGCUGAUGACUUCUGAUGUCCCAGCAAAUGUUGGCAUUGUUGACUGCUCUGUGAAGACUUCUGAGGACCCACGUCUAAGGUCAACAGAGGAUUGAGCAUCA	0.0522
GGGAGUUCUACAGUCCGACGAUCGGUGGGGUGGUCAUUGCGCCAAUUGAGCUGCUGAUUCAUGAGUCGCCUUCAAAACUCUCGUGUAGGGUUGACAAUGUGGGGGGGUGGGGGAUCCAGCUUAUUCUUUUAUUUUCAAGUCCACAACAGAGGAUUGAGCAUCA	2.1
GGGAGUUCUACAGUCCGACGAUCGUCAACAGCUGCCUCAACCCCAUCCUCUAUGCUUUCUUGGAUGAGAACUUCAAGGCCUGCUUCCGCAAGUUCUGCUGUGCAUCUGCCCUGCACCGGGACGUGCAGGUGUCUGACCGCGUGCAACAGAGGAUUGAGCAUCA	0.378
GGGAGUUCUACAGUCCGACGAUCAGAUUCCCCCUCCUGAGACCUCCUCCGAAGUUGGAGUCUCUUACAGAUGCCUCAUCCCCUGUUAGCGUUUUAGUUUGGACCACACAACCUUGGACAAUUCCCGCCAACCAGGCAAUUUGCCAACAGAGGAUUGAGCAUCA	3.48

Sample 3
Target: TAR DNA-binding protein 43, full length, His tag (TARDBP, Homo sapiens, UniProt Q13148, residues 1-414)
Method: RNA Bind-n-Seq
Molecule type: RNA
Medium: in vitro
Concentration: 20 nM
Notes: 6-mer, flanks averaged, single round
Together with: 150 mM KCl
Baseline: input library
Reading: higher = stronger binding
Oligonucleotide	6-mer enrichment (R)
AACCUA	0.598
CGAAGA	0.815
AUCGAU	0.575
UCUUAC	0.546
AGACUG	0.893
GCUCAU	0.624
AUAUUA	0.623
UGGGAC	1.95
CCAGAU	0.635
UUAUAC	0.571

Sample 4
Target: Histone acetyltransferase KAT6A, winged helix 2, GST fusion (KAT6A, Homo sapiens, UniProt Q92794, residues 85-181)
Method: protein binding microarray
Molecule type: double-stranded DNA, one strand shown
Medium: in vitro
Concentration: not given
Notes: 8-mer, flanks averaged, mean of 2 arrays, mostly near background
Baseline: not given
Reading: higher = stronger binding
Target sequence (chain): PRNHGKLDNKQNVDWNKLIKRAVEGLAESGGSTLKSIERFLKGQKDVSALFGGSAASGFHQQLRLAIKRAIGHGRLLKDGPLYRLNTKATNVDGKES
Oligonucleotide	E-score
ATTCAGTA	-0.063
ATGGGCAG	0.128
GGTGTGCA	-0.112
ACAGTACA	-0.271
GGTGCTAC	-0.14
CACCCTTC	-0.00289
AGTGGGCG	0.213
ACAACCGT	-0.131
CGTTTAAG	-0.0469
CAGGCCAG	0.11
GCTGCACC	0.0596
CTGCCCAA	-0.108
AGCGGTTC	-0.0923

Sample 5
Target: RNA binding protein fox-1 homolog 2, RRM domain, GST-SBP tag (RBFOX2, Homo sapiens, UniProt O43251-10, residues 100-194)
Method: RNA Bind-n-Seq
Molecule type: RNA
Medium: in vitro
Concentration: 365 nM
Notes: natural RNA segment, single round, ends assumed
Baseline: no-protein control
Reading: higher = stronger binding
Target sequence (chain): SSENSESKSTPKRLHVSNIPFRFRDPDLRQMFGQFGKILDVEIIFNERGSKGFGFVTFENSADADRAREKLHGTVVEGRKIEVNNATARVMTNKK
Oligonucleotide	RBNS enrichment (R)
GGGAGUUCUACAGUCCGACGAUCCCUGUCAGUUCAGAAAAAAUGUGAAGUCUACUUUAGUAUUCCUGUAAUACUAAACCGUUGAGUUUCUAAAUAUUUAUUUAUUCUAACAAAAAGCAAUUACUACAAAUGGAUGGAAUUCUCGGGUGCCAA	0.407
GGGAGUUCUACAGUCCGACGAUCACAUGUCUGACGUCAAGCGGAUAUCAGCCACGUCCAUCUUCUUCGAGUCUAUGCCCUAUAAGCUCAACGCCAAAACUGGCCUCAUUGACUACAACCAGCUGGCACUGACUUGGAAUUCUCGGGUGCCAA	0.309
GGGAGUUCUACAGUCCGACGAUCAUUGCCACAAUCUCUGGAUGGUUUUCCAGGGUUGUGUUAUUACUGAGCUUCAUCUUUCCAGAAUGAGCAAAACACUGUCCAGUCUUUGUUACGAUUUUGUAAUAAAUGUGUGGAAUUCUCGGGUGCCAA	0.276
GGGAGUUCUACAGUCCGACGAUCUAUAUAUAUACACAUAUAUAUGACAUGUAAGAGUCACUUUUAUUUAUCUGUCUUUGUUCACUUAUGAAGCCGGUAACUGCAGCAGUAUGUUGGUGAUGUCAUGAUGCACAUGGAAUUCUCGGGUGCCAA	0.518
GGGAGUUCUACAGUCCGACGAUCCCCUCUCUACCUUUUUUUAAAAGAAGAGAAUAUUUCUUAGAACUUUAUAUUAAAAAUAAACAGCUACAAGAAAGUCUUUUUCCAAUUGAGCAGUAACUGAAGAAAGUGUGUGGAAUUCUCGGGUGCCAA	0.519
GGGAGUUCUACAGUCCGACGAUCGAAAAGAUACAUUAAAAAAAAAUAAUAAUGAAGGGAGCUCAGAAUUCACACAGGCAAGGGUUGACUGGCCAAGCUGGCACCAUGUGCUUGUGCAGCUCUGGAUCUCUGAGUGGAAUUCUCGGGUGCCAA	0.555
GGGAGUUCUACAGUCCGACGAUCGGCAGAGGCUGCAGUGAGCCGAGAUGGCACCACUGCACUCCAGCUUGUUGACAGAAUGAGACCCUGUGGAAAAAAAAAAAAAAGCCCUCCCAUGCCAGAACAGAGGAUGGUGGAAUUCUCGGGUGCCAA	0.994
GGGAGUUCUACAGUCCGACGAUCGUACAAGCCUCGACAGACACGUUCUGUCAGCACUUGCCCCGGCCACCUCAUUCUGGUUUCAGUGUUACUUGUGCGCAUGUGUGUGUGUGUCUGCAGAUGGAAAUCAUUCCUGGAAUUCUCGGGUGCCAA	0.416
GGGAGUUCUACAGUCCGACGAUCCAGGGAAGGAUGACAAAAUGGAAAUUUAAAUGACAUCCUAGAGGUAGAGAAACCGUGGAGAUCGCUUUUCUCAGACUCACCAACUUUUAAUGGGAUUUCAUGGGGUUUGGUGGAAUUCUCGGGUGCCAA	0.62
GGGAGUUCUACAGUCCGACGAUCCGGAGCACAUCUGUGGUCAAUGGGCUUCCCUAUCUGCCGACUUGGCUCCCAAGGUUCUGCAGGAAAGCAGACCUGCACACAGAUCCCGUGGCUGCUGAAAAGACACAUGUUGGAAUUCUCGGGUGCCAA	0.316
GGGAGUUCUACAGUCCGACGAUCUUGUUGUUCUGUGUGGAGCGUGAGGUGAGAAAACCCCUCUGAAAAGAUGUGGUCGGGGCCACGCUUCCCACUGGUUCUGCAGUGAGGAGUUGGGGCGGGUGAGCCAAAGCUGGAAUUCUCGGGUGCCAA	0.358
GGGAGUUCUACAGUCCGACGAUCGCUUCAAGUUGAAUAUGUAUUGUGUAUAUACCUCAAGUUCAGGUUAAUGGCUUUGAUUUGUGCUCUAAAGCAAAGCAAAUAACACAGGUUAAUGGUAACUUGUUGUUCUCUGGAAUUCUCGGGUGCCAA	0.446

Sample 6
Target: Max dimerization protein 1, bHLH-zipper, MAX partner unstated (MXD1, Homo sapiens, UniProt Q05195, residues 56-136)
Method: protein-binding microarray
Molecule type: double-stranded DNA, one strand shown
Medium: in vitro
Concentration: not given
Notes: k-mer, scored over probes, only values ≥0.25
Reading: higher = stronger binding
Target sequence (chain): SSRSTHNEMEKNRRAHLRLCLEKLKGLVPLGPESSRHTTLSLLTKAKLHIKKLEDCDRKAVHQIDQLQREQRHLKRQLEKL
Oligonucleotide	E-score
CGTGTCTC	0.317
GGAGGGGA	0.295
AGTCATGC	0.353
AACGCACA	0.301
CACGCTGA	0.37
AACAGGTG	0.354
ACGTGCGC	0.407
ATGTCACG	0.326
AATGTGCG	0.334
ACCCACCC	0.367
CCACGTGC	0.487
CATGGAAC	0.273
CACCCATG	0.312

Excerpt of the above (sample 2):
Oligonucleotide	bound/input enrichment [ratio]
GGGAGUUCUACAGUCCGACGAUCAGAUUCCCCCUCCUGAGACCUCCUCCGAAGUUGGAGUCUCUUACAGAUGCCUCAUCCCCUGUUAGCGUUUUAGUUUGGACCACACAACCUUGGACAAUUCCCGCCAACCAGGCAAUUUGCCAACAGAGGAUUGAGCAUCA	3.48
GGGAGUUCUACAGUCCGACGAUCUUAAUCCCCUUUACUGCUCCCCCACUUCUCAUGGUAAUAACAAAGUCUUAUAUCCCCGUCCUAGCUUUCACUCAGAUGGCUUAUGGAGCCAGUUUCCUAGCUUUCUUGGGUGGGAUCAGACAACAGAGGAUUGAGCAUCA	0.326
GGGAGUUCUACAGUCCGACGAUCGUAGCUGGGACUACAGAAAUGCUGGUAGUGCUCCGGCCUUGCUGAUGACUUCUGAUGUCCCAGCAAAUGUUGGCAUUGUUGACUGCUCUGUGAAGACUUCUGAGGACCCACGUCUAAGGUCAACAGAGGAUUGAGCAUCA	0.0522
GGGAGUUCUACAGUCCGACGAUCGGUGGGGUGGUCAUUGCGCCAAUUGAGCUGCUGAUUCAUGAGUCGCCUUCAAAACUCUCGUGUAGGGUUGACAAUGUGGGGGGGUGGGGGAUCCAGCUUAUUCUUUUAUUUUCAAGUCCACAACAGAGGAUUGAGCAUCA	2.1
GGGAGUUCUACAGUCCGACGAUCGUCAACAGCUGCCUCAACCCCAUCCUCUAUGCUUUCUUGGAUGAGAACUUCAAGGCCUGCUUCCGCAAGUUCUGCUGUGCAUCUGCCCUGCACCGGGACGUGCAGGUGUCUGACCGCGUGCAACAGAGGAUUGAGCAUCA	0.378
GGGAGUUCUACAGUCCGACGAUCAGAUAUUAAGUAUUUUGAAAAAACUCGAACAGAUUUAACAAGGGUAGCCAGCUUGGAGUCUAGCAACUUGCCAAUGUGUUUACCAAUCUGGGGGCUUGUUUUUCUUUUCUUCUUUCAAAUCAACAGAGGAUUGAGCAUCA	0.329
